Published values collected from several papers.
JAK1 JH1 kinase domain: Tyrosine-protein kinase JAK1, JH1 kinase domain (JAK1, Homo sapiens, UniProt P23458)
Sequence of UniProt P23458 (whole entry, looked up): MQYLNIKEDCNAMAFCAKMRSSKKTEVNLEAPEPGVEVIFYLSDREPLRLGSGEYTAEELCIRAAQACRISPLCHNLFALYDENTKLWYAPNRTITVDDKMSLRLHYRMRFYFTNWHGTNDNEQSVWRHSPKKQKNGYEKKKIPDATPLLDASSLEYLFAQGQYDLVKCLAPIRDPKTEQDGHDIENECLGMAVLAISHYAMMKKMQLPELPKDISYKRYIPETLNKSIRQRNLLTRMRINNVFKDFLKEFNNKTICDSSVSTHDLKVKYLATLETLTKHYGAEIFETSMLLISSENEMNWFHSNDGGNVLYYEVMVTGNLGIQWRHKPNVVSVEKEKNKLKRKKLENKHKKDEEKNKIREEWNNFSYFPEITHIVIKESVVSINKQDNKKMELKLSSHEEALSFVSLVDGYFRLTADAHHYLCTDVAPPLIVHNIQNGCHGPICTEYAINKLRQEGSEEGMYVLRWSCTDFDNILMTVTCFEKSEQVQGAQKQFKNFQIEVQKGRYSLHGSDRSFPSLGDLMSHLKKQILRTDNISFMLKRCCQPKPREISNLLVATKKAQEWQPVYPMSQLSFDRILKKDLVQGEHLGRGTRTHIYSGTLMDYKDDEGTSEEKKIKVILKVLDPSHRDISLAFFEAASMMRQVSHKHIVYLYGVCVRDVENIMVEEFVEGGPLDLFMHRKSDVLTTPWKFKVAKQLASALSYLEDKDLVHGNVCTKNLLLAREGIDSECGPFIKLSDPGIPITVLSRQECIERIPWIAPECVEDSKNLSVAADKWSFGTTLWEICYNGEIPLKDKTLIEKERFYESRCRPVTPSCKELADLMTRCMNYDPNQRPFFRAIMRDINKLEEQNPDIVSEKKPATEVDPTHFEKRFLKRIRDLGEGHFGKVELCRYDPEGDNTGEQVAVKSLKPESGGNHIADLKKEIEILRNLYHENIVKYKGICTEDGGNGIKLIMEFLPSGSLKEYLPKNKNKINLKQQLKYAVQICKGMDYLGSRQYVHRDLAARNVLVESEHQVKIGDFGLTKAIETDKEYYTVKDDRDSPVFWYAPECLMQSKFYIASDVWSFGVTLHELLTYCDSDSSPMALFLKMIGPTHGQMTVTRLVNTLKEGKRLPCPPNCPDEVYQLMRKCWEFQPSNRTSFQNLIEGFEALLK
JAK1: Tyrosine-protein kinase JAK1 (JAK1, Homo sapiens, UniProt P23458)

The remaining binding of C=CC(=O)N1CCC(COCC(=O)N2CCN(c3nc(-c4cnc(N)nc4C(F)F)nc(N4CCOC[C@@H]4C)n3)CC2)CC1 is reported as 91% (JAK1 JH1 kinase domain; KINOMEscan; 1 µM; baseline: DMSO control).
[2H]c1cc(C)c(NC(=O)c2cnc(Nc3cc(N4CCCCC4)nc(C)n3)s2)c(Cl)c1 has an inhibition of < 30% (JAK1; 0.01 µM).
Under “probe labelling inhibition”, Cc1cc(-c2ccnc3[nH]cc(F)c23)cc(F)c1[C@@]1(O)[C@H](C)CN(C2CCS(=O)(=O)CC2)C[C@@H]1C is recorded as 11.4% (JAK1; ATP/ADP probe binding, KiNativ; HEK293T lysate; 10 µM, activation loop domain 1).
COc1cc(-c2cncc3c2CN(C)Cc2cc(N4CCNCC4)ccc2-3)cc(OC)c1OC has a remaining activity of 90% (JAK1; kinase activity; 1 µM, human enzyme, added: ATP 10 µM; baseline: DMSO control).
With Cc1cc(Nc2cc(N3CCN(C)CC3)nc(Sc3ccc(NC(=O)C4CC4)cc3)n2)[nH]n1 the remaining activity was 96% (JAK1; kinase activity, KinaseProfiler; 0.03 µM, species human; baseline: control).
Cc1cc(-c2ccnc3[nH]cc(F)c23)cc(F)c1[C@@]1(O)[C@H](C)CN(C(=O)CN)C[C@@H]1C — result for “probe labelling inhibition”: 31% (JAK1; ATP/ADP probe binding, KiNativ; HEK293T lysate; 1 µM, activation loop domain 1).
C[C@@H](c1ccc(-n2cnc3c(N)ncnc32)cc1)N1CCc2nn(C)c(Cc3ccccc3)c2C1=O has a remaining binding of 99% (JAK1 JH1 kinase domain; KINOMEscan; 0.1 µM; baseline: DMSO control).
With Cc1nc(NC(=O)N2CCC[C@H]2C(N)=O)sc1-c1ccnc(C(C)(C)C(F)(F)F)c1 the remaining binding was 100% (JAK1 JH1 kinase domain; KINOMEscan; 10 µM).

Repeated from above:
With Cc1cc(Nc2cc(N3CCN(C)CC3)nc(Sc3ccc(NC(=O)C4CC4)cc3)n2)[nH]n1 the remaining activity was 96% (JAK1; kinase activity, KinaseProfiler; 0.03 µM, species human; baseline: control).
